Assay results collected from several papers.
Numbered parts are unrelated; each lists some results of a single study.

Series 1 — method: protein-binding microarray; form: double-stranded DNA, one strand shown; matrix: in vitro; concentration: 0.8 µM; notes: whole 60-bp probe, no competitor; direction: higher = stronger binding; measurement: fluorescence intensity
Target: Centromere-binding protein 1, full length, N-terminal tag (CBF1, Saccharomyces cerevisiae, UniProt P17106, residues 1-351)
Sequence of UniProt P17106 (whole entry, looked up): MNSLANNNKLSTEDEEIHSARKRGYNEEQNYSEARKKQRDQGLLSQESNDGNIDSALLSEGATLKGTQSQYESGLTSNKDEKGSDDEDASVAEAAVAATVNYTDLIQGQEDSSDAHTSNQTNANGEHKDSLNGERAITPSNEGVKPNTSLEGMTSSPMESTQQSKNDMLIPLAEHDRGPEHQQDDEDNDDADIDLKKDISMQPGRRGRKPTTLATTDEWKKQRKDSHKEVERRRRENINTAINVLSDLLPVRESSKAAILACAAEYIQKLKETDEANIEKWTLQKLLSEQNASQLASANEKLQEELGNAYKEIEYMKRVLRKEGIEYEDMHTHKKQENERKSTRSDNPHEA
GAATCAGTTCAAGTTCAGCTGATCTAAGTAGCTTAGGTCTTGATTCGCTTGACGCTGCTG: 819 a.u.
GAACGTGATATACACCTGACCTATAATATTTCGTAGGTCTTGATTCGCTTGACGCTGCTG: 2610 a.u.
GAATGTCAAAGCGCAAACGTGGGAAGTGACGATTAGGTCTTGATTCGCTTGACGCTGCTG: 534 a.u.
TGTACGAAGCTATTGCACGTAGATATAGTAGTTAGGGTCTTGATTCGCTTGACGCTGCTG: 547 a.u.

Series 2 — method: protein-binding microarray; form: double-stranded DNA, one strand shown; matrix: in vitro; concentration: 2200 nM top; notes: 60-bp whole probe; added: salmon DNA 0.4 mg/ml; baseline: random background probes; direction: higher = stronger binding; measurement: fitted relative affinity; all sequences stand within: GCCTAGCACT … GTCTTGATTCGCTTGACGCTGCTG
Target: Interferon regulatory factor 7, full length, phosphomimetic (IRF7, Homo sapiens, UniProt Q92985, residues 1-503, S471D/S472D/S475D/S476D/S477D/S483D/S484D/S487D)
Target sequence (chain): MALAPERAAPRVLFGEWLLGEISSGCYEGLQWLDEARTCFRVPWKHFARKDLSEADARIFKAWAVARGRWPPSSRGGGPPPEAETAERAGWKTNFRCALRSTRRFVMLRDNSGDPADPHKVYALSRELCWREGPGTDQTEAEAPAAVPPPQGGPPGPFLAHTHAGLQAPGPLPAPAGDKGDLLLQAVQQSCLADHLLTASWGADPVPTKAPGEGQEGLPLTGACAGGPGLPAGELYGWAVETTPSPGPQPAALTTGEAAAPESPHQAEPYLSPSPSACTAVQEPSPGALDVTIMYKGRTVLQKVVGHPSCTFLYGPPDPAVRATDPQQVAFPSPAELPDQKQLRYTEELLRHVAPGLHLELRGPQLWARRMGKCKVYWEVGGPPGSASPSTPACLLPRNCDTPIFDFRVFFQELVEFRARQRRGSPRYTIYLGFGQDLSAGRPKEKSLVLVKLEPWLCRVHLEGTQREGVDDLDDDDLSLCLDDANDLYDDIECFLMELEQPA
CATCACTCTGTCCCTCACTGTGCTAG: 2.1 z-score
CATTTTTGCTTTCCTTACTGTGCTAG: 5.8 z-score
GCGGTTCAGATATAGGATAGTGCTAG: 0.303 z-score
TAGGTTTCGGTCTCAGTTAGTGCTAG: 5.91 z-score
CAACCTTCGAGTCTGCAACTGTGCTA: 0.871 z-score

Series 3 — method: universal PBM; form: double-stranded DNA, one strand shown; matrix: in vitro; concentration: 600 nM; direction: higher = stronger binding; measurement: E-score
Target: Sal-like protein 4, full length isoform A (SALL4, Homo sapiens, UniProt Q9UJQ4, residues 1-1053)
Sequence of UniProt Q9UJQ4 (whole entry, looked up): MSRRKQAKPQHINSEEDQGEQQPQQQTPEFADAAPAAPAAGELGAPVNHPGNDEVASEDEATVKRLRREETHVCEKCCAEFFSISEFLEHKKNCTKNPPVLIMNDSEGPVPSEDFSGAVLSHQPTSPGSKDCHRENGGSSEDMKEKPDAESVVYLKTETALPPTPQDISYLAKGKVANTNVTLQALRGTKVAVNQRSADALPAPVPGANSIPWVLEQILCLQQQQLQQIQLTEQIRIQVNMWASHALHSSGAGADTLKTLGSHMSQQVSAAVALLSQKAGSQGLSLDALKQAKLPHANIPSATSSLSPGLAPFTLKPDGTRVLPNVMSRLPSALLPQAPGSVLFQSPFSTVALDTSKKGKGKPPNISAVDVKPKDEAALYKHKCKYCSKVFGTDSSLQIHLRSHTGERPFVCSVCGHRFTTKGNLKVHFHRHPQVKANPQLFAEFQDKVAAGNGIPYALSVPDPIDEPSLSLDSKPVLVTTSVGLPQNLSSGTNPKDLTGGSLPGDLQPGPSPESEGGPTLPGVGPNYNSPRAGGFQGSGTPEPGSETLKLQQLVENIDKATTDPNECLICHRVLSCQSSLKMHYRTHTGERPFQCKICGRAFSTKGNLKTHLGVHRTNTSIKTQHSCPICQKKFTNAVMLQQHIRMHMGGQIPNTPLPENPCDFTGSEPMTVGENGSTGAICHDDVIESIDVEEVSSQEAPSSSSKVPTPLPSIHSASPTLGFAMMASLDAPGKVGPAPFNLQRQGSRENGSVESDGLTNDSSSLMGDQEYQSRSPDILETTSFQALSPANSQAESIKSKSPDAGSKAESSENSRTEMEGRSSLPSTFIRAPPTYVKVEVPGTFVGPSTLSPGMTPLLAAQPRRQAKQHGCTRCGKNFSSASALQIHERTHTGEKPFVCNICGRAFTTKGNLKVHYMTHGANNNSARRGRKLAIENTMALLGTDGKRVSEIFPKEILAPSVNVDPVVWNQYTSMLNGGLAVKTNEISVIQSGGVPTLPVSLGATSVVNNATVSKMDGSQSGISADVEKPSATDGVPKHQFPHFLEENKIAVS
Notes: 8-mer, flanks averaged, mean of replicates
GATGCCCC: -0.403
CCCGAACG: -0.309
GTTGTGGA: 0.0385

Further values, each from its own experiment
PhoQ, residues 284 288 289 292 302 303 AEGLLW
fold induction (PhoP, residues 12 14 15 18 19 NQAHL (Escherichia coli, UniProt P23836); Sort-seq, measured: YFP reporter; E. coli; PhoQ-PhoP variant library, added: 10 µM Mg2+; baseline: high Mg2+ state, higher = stronger signaling): 2.14

Excerpt of the above (series 2):
GCGGTTCAGATATAGGATAGTGCTAG: 0.303 z-score
CATTTTTGCTTTCCTTACTGTGCTAG: 5.8 z-score
